Measurements collected from several papers.
Compare with care: the assays were run in different laboratories. Numbers after ± are the reported error.
ACTA1 F-actin: ACTA1 F-actin (Oryctolagus cuniculus, UniProt P68135)
ACTA1: ACTA1 (Oryctolagus cuniculus, UniProt P68135)
B1: Palld 1022-1126 (Mus musculus, UniProt Q9ET54); chain NATAPFFEMKLKHYKIFEGMPVTFTCRVAGNPKPKIYWFKDGKQISPKSDHYTIQRDLDGTCSLHTTASTLDDDGNYTIMAANPQGRVSCTGRLMVQAVNQRGRS
B2: TWF1 (Saccharomyces cerevisiae, UniProt P53250); SNAP-Surface-549 label; chain MSTQSGIVAEQALLHSLNENLSADGIVIIIAKISPDSTSVHQTQVARSFEELVQLASQEREPLYIFYKPEGLDKYFFVSFIPDGSPVRSRMLYASTKNTLARQVGSNSLSTEQPLITDAQDLVDLKNFDSARPAGQNKPLTHDEEMQIEINKQQALLRKNTSVKLVSQDSASPLSLTFRVNSEKPINEILDSEGKNLIIFQIDPSNETIQIVQSDTCPSVDELYIDLPGPSYTIFRQGDSSFFIYSCPSGSKVKDRMIYASNKNGFINYLKNDQKIAFSKVVEIGDFVELDKSLLMATNKEDSLDHGSNPDLPNKSNLKFNKPKGPLRKRRT

Substance | tested on | assay | system | setting | how to read | measurement | value
SPTBN2 actin-binding domain L253P (sequence not shown) | ACTA1 F-actin | co-sedimentation | – | – | – | Kd | < 1 µM
PALLD Ig3-Ig4 tandem I179V/N224S | ACTA1 F-actin | low-speed co-sedimentation | – | 5 µM | – | bundled F-actin fraction | 49.7%
PLS3 (Homo sapiens, UniProt P13797) | ACTA1 | fluorescence microscopy | – | video-enhanced | – | binding | binds
B1 (Palld 1022-1126) | ACTA1 F-actin | low-speed co-sedimentation | – | 5 µM | – | bundled F-actin fraction | 11.5%
GGWVEKETYY | human MAGI1-2/6 PDZ construct (MBP fusion) | automated holdup | peptide, crude extract | concentration not given, corrected by standard peak, unit not given | relative to: biotin control resin, higher = stronger binding | binding intensity | -0.0476
SPTBN2 actin-binding domain T271I (sequence not shown) | ACTA1 F-actin | co-sedimentation | – | – | – | Kd | < 1 µM
DNM1L fragment (Homo sapiens) (sequence not shown) | ACTA1 filaments (Oryctolagus cuniculus, UniProt P68135) | co-sedimentation | – | apparent, together with: NaCl 140 mM | – | Kd | 1.2 µM
GSGAGSETSV | human MAGI1-2/6 PDZ construct (MBP fusion) | automated holdup | peptide, crude extract | concentration not given, uncorrected, unit not given | relative to: biotin control resin, higher = stronger binding | binding intensity | 0.208
Myo31DF (Drosophila melanogaster, UniProt Q23978) | ACTA1 | bead movement on actin filament, motility assay | – | – | – | speed | 8 nm/s
PALLD Ig3-Ig4 tandem x, scrambled linker | ACTA1 F-actin | co-sedimentation | – | – | – | Kd | 4 ± 1.3 µM
TMSB4X mature (Homo sapiens, UniProt P62328) | ACTA1 G-actin monomer, NT-647 dye label (Oryctolagus cuniculus, UniProt P68135) | MST | – | – | – | Kd | 3.2 ± 0.6 µM
SPTBN2 actin-binding domain V58M (sequence not shown) | ACTA1 F-actin | co-sedimentation | – | – | – | Kd | 10.2 µM
PALLD Ig3-Ig4 tandem del21 linker residues | ACTA1 F-actin | low-speed co-sedimentation | – | 5 µM | – | bundled F-actin fraction | 82.1%
SPTBN2 actin-binding domain K65E (sequence not shown) | ACTA1 F-actin | co-sedimentation | – | – | – | Kd | < 1 µM
B2 (TWF1) | ACTA1 F-actin filaments, Alexa-488 label (Oryctolagus cuniculus, UniProt P68135) | single-molecule TIRF | – | – | – | koff | 2.26 ± 0.3 s⁻¹
PALLD Ig3-Ig4 tandem del6 linker residues | ACTA1 F-actin | co-sedimentation | – | – | – | Kd | 9.1 ± 1.5 µM
SPTBN2 actin-binding domain D255G (sequence not shown) | ACTA1 F-actin | co-sedimentation | – | – | – | Kd | 7.3 µM
YAP1 (Homo sapiens) | ACTA1 G-actin (Oryctolagus cuniculus, UniProt P68135) | SPR | – | – | – | dissociation half-life | 3.07 ± 0.27 min

Excerpt of the above:
Substance | tested on | assay | system | setting | how to read | measurement | value
SPTBN2 actin-binding domain T271I (sequence not shown) | ACTA1 F-actin | co-sedimentation | – | – | – | Kd | < 1 µM
